Experimental data of several laboratories.
Lines come from different studies, so protocols differ. “And” joins repeats or separate records; there may be more than shown. Numbers after ± are the reported error.

| Structure (SMILES) | target | test | system | conditions | scale | endpoint | value |
| --- | --- | --- | --- | --- | --- | --- | --- |
| CCCCCCCCCCCC(=O)N[C@@H](CO)C[C@@H](O)c1cccc(CCCCCC)c1 | ceramide transfer protein (CERT), human | cellular CERT activity, HPLC-MS/MS lipidomics | HeLa | 1 µM, 24 h | – | SM/ceramide ratio C24 | 4 ,0 |
| C=CC(=O)Nc1cccc(Cn2ncc3cnc(Nc4cnn(CCOC)c4)nc32)c1 | FGFR3 human | binding, KINOMEscan | – | 100 nM | lower = stronger binding | percent of control | 43% |
| C=CC(=O)N1[C@H](c2ccc3c(c2)OCO3)c2[nH]c3ccccc3c2C[C@@H]1C(=O)N1CCN(C)CC1 | human cyclin E1 N112C-3xFLAG:CDK2 | co-IP with TMT proteomics, refers to: PNN | – | concentration not given, Q9H307 | baseline: wild type DMSO | relative co-enrichment | 137% |
| O=C(N/N=C/c1ccc2c(ccc[n+]2Cc2ccccc2)c1)c1cc(C(=O)N/N=C/c2ccc3c(ccc[n+]3Cc3ccccc3)c2)ncn1 | myc22 MYC G4-DNA parallel | FRET melting | – | 1 µM, K1 buffer, DNA 0.2 µM | – | ΔTm | 7.4 ± 1 °C |
| NCCOc1cc(NC(=O)c2cc(OCc3cn(Cc4ccc(C(=O)O)cc4)nn3)cc(C(=O)Nc3cc(OCCN)c4ccccc4n3)n2)nc2ccccc12 | double-stranded DNA | FRET melting | – | 1 µM, pH 7.4, 60 mM potassium, together with: oligonucleotide 200 nM | – | delta Tm | 0 ± 0.1 K |
| C[n+]1cc(/C=N/NC(=O)c2cccc(C(=O)N/N=C/c3cc4ccccc4[n+](C)c3)c2)cc2ccccc21 | myc22 MYC G4-DNA parallel | FRET melting | – | 1 µM, K1 buffer, DNA 0.2 µM, together with: ds26 10 µM | – | ΔTm | 10.5 ± 0.3 °C |
| CCCCCCCCCCCC(=O)N[C@H](CO)C[C@@H](O)c1ccccc1 | ceramide transfer protein (CERT), human | cellular CERT activity, HPLC-MS/MS lipidomics | HeLa | 1 µM, 24 h, normalised to cell number | – | SM 24:1 amount | 189000 pmol/sample and 166000 pmol/sample and 167000 pmol/sample |
| CN(C)CCOc1cc(NC(=O)c2cccc(C(=O)Nc3cc(OCCN(C)C)c4ccccc4n3)n2)nc2ccccc12 | double-stranded DNA | FRET melting | – | 1 µM, pH 7.4, 60 mM potassium, together with: oligonucleotide 200 nM | – | delta Tm | 0.3 ± 0.2 K |
| CC(C)(CO)Cc1cn(C2CCCN(C(=O)c3ccc4c(c3)CCOC4(C)C)CC2)nn1 (stereo not drawn) | FSP1 F15A | resorufin formation, inhibitor | – | together with: NADH, resazurin | – | IC50 | no inhibition |
| CC[n+]1cccc2cc(/C=N/NC(=O)N/N=C/c3ccc4c(ccc[n+]4CC)c3)ccc21 | myc22 MYC G4-DNA parallel | FRET melting | – | 1 µM, K1 buffer, DNA 0.2 µM | – | ΔTm | 5.6 ± 0.4 °C |
| CCCCCCc1cccc(C(O)CC(CO)NC(=O)CCCCCCCCCCNC(C)=O)c1 (stereo not drawn) | ceramide transfer protein (CERT), human | cellular CERT activity, HPLC-MS/MS lipidomics | HeLa | 1 µM, 24 h | – | SM/ceramide ratio C18 | 26 ,0 and 20 ,0 |
| C=CC(=O)Nc1cc(-c2nn(C3CCN(CCNC(=O)[C@H](C)CCC45CC6CC(CC(C6)C4)C5)CC3)c3ncnc(N)c23)ccc1Oc1ccccc1 | casein kinase 1 delta and epsilon | KiNativ | – | 2 µM | – | inhibition | -12.9% |
| Fc1ccc(Nc2nc(NC3CCCCC3)c3cc(C(F)(F)F)ccc3n2)cc1F | β2AR/β1AR TM5 chimera | β-arrestin2 recruitment, antagonist, BRET | – | – | baseline: isoprenaline maximal response | maximal inhibition | 4% |
| O=C(N/N=C/c1ccc(C[n+]2ccccc2)cc1)C(=O)N/N=C/c1ccc(C[n+]2ccccc2)cc1 | myc22 MYC G4-DNA parallel | FRET melting | – | 1 µM, K1 buffer, DNA 0.2 µM | – | ΔTm | 3.7 ± 0.7 °C |
| Cc1[nH]nc2c1N=C(c1ccccc1Cl)c1cnc(N3CCOCC3)cc1N2 | sodium channel site 2, rat | radioligand binding | – | 10 µM | – | inhibition | 39% |
| COc1cc(Nc2nc(C)cc(-c3cnn4nc(OC)ccc34)n2)cc(C(F)(F)F)c1 | FLT3 ITD mutant, human | KINOMEscan binding | – | 1000 nM | baseline: control | remaining binding | 81% |
| c1ccc(-c2n[nH]cc2-c2ccnc3ccccc23)nc1 | PKH3 (Candida albicans) | kinase binding, MIB/MS competition | Candida albicans lysate | 10 µM | baseline: DMSO | log2 fold change | -0.04 |
| CN1CCCNC(=O)CCC(=O)NCCCN(C)CCCNc2cccc3c2C(=O)c2cccc(c2C3=O)NCCC1 | double-stranded DNA | DNA thermal stabilisation, CD melting | – | 4.5 µM, pH 7.4, together with: 1.5 µM DNA, 100 mM KCl | – | ΔTm | < 0.5 °C |
| CCCCCCc1cccc([C@H](O)C[C@H](CO)NC(=O)CCCCCCCCCCBr)c1 | ceramide transfer protein (CERT), human | cellular CERT activity, HPLC-MS/MS lipidomics | HeLa | 1 µM, 24 h | – | SM/ceramide ratio C18 | 30 ,0 |
| O=C(N/N=C/c1cc[n+](CC2CC2)c2ccccc12)c1ccc2ccc(C(=O)N/N=C/c3cc[n+](CC4CC4)c4ccccc34)nc2n1 | myc22 MYC G4-DNA parallel | FRET melting | – | 1 µM, K1 buffer, DNA 0.2 µM, together with: ds26 10 µM | – | ΔTm | 22.4 ± 0.9 °C |
| CC(C)(O)c1ccn2c(-c3ccc(F)c(-c4ccc(F)cc4C#N)c3)cnc2c1F | GABAA receptor α1 G251D human | co-immunoprecipitation, refers to: γ2 subunit | HEK-293T | 5 µM, 24 h, together with: hispidulin 10 µM | – | protein interaction | increased |
| C[n+]1ccc(/C=N/NC(=O)c2cccc(C(=O)N/N=C/c3cc[n+](C)c4ccccc34)c2)c2ccccc21 | myc22 MYC G4-DNA parallel | FRET melting | – | 1 µM, K1 buffer, DNA 0.2 µM, together with: ds26 10 µM | – | ΔTm | 11.6 ± 0.2 °C |
| O=c1c(Oc2ccccc2)c(C(F)(F)F)oc2c(O)c(O)ccc12 | ROC1-CUL1 with Cdc34~Ub | ubiquitin discharge, inhibitor | – | – | – | Ub2 production | inhibited |
| C[n+]1ccc(/C=N/NC(=O)c2cc(C(=O)N/N=C/c3cc[n+](C)cc3)ncn2)cc1 | myc22 MYC G4-DNA parallel | FRET melting | – | 1 µM, K1 buffer, DNA 0.2 µM | – | ΔTm | 1.7 ± 1.4 °C |
| Nc1ncc(-c2cc(-c3cnn(CC(F)(F)F)c3)ncc2F)nc1C(=O)NC1CNCC(F)C1 (stereo not drawn) | GRK3 | KINOMEscan | – | 1 µM | baseline: DMSO control | remaining binding | 54% |
| C[n+]1cc(/C=N/NC(=O)N/N=C/c2cc3ccccc3[n+](C)c2)cc2ccccc21 | myc22 MYC G4-DNA parallel | FRET melting | – | 1 µM, K1 buffer, DNA 0.2 µM | – | ΔTm | 5.3 ± 0.4 °C |
| Fc1ccc(Nc2nc(NC3CCCCC3)c3cc(Br)ccc3n2)cc1F | β2AR/β1AR TM5 chimera | β-arrestin2 recruitment, antagonist, BRET | – | together with: isoprenaline 1 µM | – | pIC50 | 6.9 |

For quick reference, copied from above:
| Structure (SMILES) | target | test | system | conditions | scale | endpoint | value |
| --- | --- | --- | --- | --- | --- | --- | --- |
| O=c1c(Oc2ccccc2)c(C(F)(F)F)oc2c(O)c(O)ccc12 | ROC1-CUL1 with Cdc34~Ub | ubiquitin discharge, inhibitor | – | – | – | Ub2 production | inhibited |
| C[n+]1ccc(/C=N/NC(=O)c2cc(C(=O)N/N=C/c3cc[n+](C)cc3)ncn2)cc1 | myc22 MYC G4-DNA parallel | FRET melting | – | 1 µM, K1 buffer, DNA 0.2 µM | – | ΔTm | 1.7 ± 1.4 °C |
